Assay results pooled from the literature.
Compare with care: the assays were run in different laboratories.
Cell line: MDA-MB-468

Compound	test	setting	measurement	value
O=C(CN1CCOCC1)N1CCN(CC(OCc2ccc3ccccc3c2)c2ccc(Cl)cc2Cl)CC1 (stereo not drawn)	cell growth or viability, MTT	24 h	IC50	> 50 µM
C#CCCCC(F)/C=C/C(=O)NC1(c2ccc(-c3nc4ccn5c(=O)[nH]nc5c4cc3-c3ccccc3)cc2)CCC1 (stereo not drawn)	flow cytometry PI	EC60, 72 h	G2/M phase cells	28.6%
CC(C)NCCCn1c(Sc2cc(Cl)cc(Cl)c2)nc2c(N)ncnc21	cell growth or viability, resazurin	72 h	IC50	0.11 µM
Cc1nc2c(F)cc(-c3nc(Nc4ccc(C(=O)NCCCCCC(=O)NO)cc4)ncc3F)cc2n1C(C)C	cell growth or viability, CCK-8	0.3 µM, 48 h	inhibition	42%
C=Cc1cc(Cl)cc(Sc2nc3c(N)ncnc3n2CCCNC(C)C)c1	cell growth or viability, resazurin	72 h	IC50	0.13 µM
Cc1ccc(C(=O)N2CCN(CC(OCc3ccc4ccccc4c3)c3ccc(Cl)cc3Cl)CC2)cc1 (stereo not drawn)	cell growth or viability, MTT	24 h	IC50	43.6 µM
Cc1cc(C)nc(NC(=S)N2CCN(Cc3ccc(C(F)(F)F)cc3)CC2)c1	isotope labelling	concentration not given, 4 h, added: U-13C-serine	M+2 glycine pool	decreased
CC(C)(C)OC(=O)N1CCN(CC(OCc2ccc3ccccc3c2)c2ccc(Cl)cc2Cl)CC1 (stereo not drawn)	cell growth or viability, MTT	24 h	IC50	17.6 µM
CC(C)NCCCn1c(Sc2cc(Cl)cc(C#CC3CC3)c2)nc2c(N)ncnc21	cell growth or viability, resazurin	72 h	IC50	8.2 µM
Clc1ccc(C(Cn2cncn2)OCc2ccc(Br)cc2)c(Cl)c1 (stereo not drawn)	cell growth or viability, MTT	24 h	IC50	38 µM
O=S1(=O)CC2CCCCC2CS1 (stereo not drawn)	MTT	100 µM, 72 h	viability	1.74%
Nc1ncnc2c1nc(Sc1cc(Cl)cc(Cl)c1)n2CCCn1ccnc1	cell growth or viability, resazurin	72 h	IC50	> 10 µM
C#CCCCC(O)/C=C/C(=O)NC1(c2ccc(-c3nc4ccn5c(=O)[nH]nc5c4cc3-c3ccccc3)cc2)CCC1 (stereo not drawn)	flow cytometry PI	EC60, 72 h	G2/M phase cells	26.1%
O=C(c1ccc([N+](=O)[O-])cc1)N1CCN(CC(OCc2ccc3ccccc3c2)c2ccc(Cl)cc2Cl)CC1 (stereo not drawn)	cell growth or viability, MTT	24 h	IC50	38.8 µM
Cc1nc2c(F)cc(-c3nc(Nc4ccc(CNC(=O)CCCCCCC(=O)NO)cc4)ncc3F)cc2n1C(C)C	cell growth or viability, CCK-8	0.3 µM, 48 h	inhibition	100%
CCN(C(=O)c1cc(F)ccc1Oc1nncnc1N1CCC2(C1)CN([C@H](CCCN(C)CCOC)C(C)C)C2)C(C)C	cell growth or viability	7 days	GI50	> 10 µM
O=C(c1ccncc1)N1CCN(CC(OCc2ccc3ccccc3c2)c2ccc(Cl)cc2Cl)CC1 (stereo not drawn)	cell growth or viability, MTT	24 h	IC50	42.4 µM
CC(C)NCCCn1c(Sc2cc(Cl)cc(-c3ccoc3)c2)nc2c(N)ncnc21	cell growth or viability, resazurin	72 h	IC50	0.17 µM
Clc1ccc(C(Cn2ccnc2)OCc2ccc(Br)cc2)c(Cl)c1 (stereo not drawn)	cell growth or viability, MTT	24 h	IC50	> 50 µM
CC(C)NCCCn1c(Sc2cc(Cl)cc(-c3cccs3)c2)nc2c(N)ncnc21	cell growth or viability, resazurin	72 h	IC50	5.7 µM
Cc1cc(C)nc(NC(=S)N2CCN(c3ccc(C(F)(F)F)cn3)CC2)c1	isotope labelling	10 µM, 24 h, added: U-13C-serine	M+1 dTMP pool	decreased
CN(C)CCN1CCN(c2ccc3nc(-c4ccc5nc(-c6ccc(C(F)(F)F)cc6)[nH]c5c4)[nH]c3c2)CC1	SRB	10 µM, 48 h	growth percent	13.7%
C=C(C)c1cc(Cl)cc(Sc2nc3c(N)nc(F)nc3n2CCCNC(C)C)c1	cell growth or viability, resazurin	72 h	IC50	0.08 µM
CCN1CCN(CC(=O)N2CCN(CC(OCc3ccc4ccccc4c3)c3ccc(Cl)cc3Cl)CC2)CC1 (stereo not drawn)	cell growth or viability, MTT	24 h	IC50	29 µM

Excerpt of the above:
Compound	test	setting	measurement	value
Cc1cc(C)nc(NC(=S)N2CCN(Cc3ccc(C(F)(F)F)cc3)CC2)c1	isotope labelling	concentration not given, 4 h, added: U-13C-serine	M+2 glycine pool	decreased
O=S1(=O)CC2CCCCC2CS1 (stereo not drawn)	MTT	100 µM, 72 h	viability	1.74%
CC(C)NCCCn1c(Sc2cc(Cl)cc(C#CC3CC3)c2)nc2c(N)ncnc21	cell growth or viability, resazurin	72 h	IC50	8.2 µM
